Published values collected from several papers.
Each line is one published result; not all experiments were run side by side. ± marks the error that the study gave.
CYP1A2: Cytochrome P450 1A2 (CYP1A2, Homo sapiens, UniProt P05177)
Chain of UniProt P05177 (whole entry, looked up): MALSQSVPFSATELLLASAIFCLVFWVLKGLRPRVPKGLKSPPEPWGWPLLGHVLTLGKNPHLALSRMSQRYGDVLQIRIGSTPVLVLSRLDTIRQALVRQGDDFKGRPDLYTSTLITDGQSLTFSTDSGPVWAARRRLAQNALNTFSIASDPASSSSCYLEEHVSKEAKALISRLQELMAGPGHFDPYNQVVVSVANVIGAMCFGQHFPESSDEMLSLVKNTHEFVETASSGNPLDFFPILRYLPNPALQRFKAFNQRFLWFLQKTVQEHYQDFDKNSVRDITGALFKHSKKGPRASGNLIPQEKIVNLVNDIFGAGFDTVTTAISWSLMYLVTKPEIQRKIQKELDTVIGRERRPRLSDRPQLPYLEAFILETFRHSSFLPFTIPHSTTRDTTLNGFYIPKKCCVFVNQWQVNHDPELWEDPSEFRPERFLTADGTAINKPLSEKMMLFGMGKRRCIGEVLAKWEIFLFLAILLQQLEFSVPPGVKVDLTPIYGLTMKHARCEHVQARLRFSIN
Chain of UniProt P03956 (whole entry, looked up): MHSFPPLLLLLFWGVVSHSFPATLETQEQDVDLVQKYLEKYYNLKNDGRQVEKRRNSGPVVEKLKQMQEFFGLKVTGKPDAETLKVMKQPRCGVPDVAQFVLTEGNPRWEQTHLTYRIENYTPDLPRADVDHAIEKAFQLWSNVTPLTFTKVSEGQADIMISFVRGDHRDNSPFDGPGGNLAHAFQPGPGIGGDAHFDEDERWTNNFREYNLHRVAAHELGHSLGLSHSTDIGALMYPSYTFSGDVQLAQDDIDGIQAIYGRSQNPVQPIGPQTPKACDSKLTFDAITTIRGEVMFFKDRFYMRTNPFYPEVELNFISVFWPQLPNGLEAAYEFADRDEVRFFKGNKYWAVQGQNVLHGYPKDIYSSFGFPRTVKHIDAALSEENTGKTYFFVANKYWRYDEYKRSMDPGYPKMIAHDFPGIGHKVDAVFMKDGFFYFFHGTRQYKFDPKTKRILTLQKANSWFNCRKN
Chain of UniProt P10635 (whole entry, looked up): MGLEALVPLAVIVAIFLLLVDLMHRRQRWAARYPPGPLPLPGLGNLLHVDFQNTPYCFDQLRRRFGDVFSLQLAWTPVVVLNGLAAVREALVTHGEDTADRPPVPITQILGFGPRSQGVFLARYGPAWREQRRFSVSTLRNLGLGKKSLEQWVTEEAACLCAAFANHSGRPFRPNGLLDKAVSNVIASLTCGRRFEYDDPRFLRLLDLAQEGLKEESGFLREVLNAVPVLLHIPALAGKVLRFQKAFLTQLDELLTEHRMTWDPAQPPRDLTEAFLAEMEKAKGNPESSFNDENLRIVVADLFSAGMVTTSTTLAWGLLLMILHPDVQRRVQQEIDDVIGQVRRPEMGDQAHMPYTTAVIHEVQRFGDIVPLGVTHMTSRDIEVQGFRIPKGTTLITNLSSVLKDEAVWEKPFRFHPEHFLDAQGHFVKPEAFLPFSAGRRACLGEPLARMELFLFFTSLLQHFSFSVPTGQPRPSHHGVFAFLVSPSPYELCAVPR

CNC(=O)O/N=C/C(C)(C)S(C)(=O)=O
inhibition (CYP1A2; inhibitor; human liver microsomes; 10 µM, pH 7.4, with: phenacetin): 0.21%

CC(C)N(CC(O)COc1cccc2ccccc12)N=O (stereo not shown)
mutagenicity (Salmonella typhimurium, Escherichia coli; preincubation Ames test; concentration not given, with and without S9): positive

COc1ccc2c(c1)[C@]13CCCC[C@@H]1[C@H](C2)N(C)CC3
t1/2 (Wistar rat, both sexes, plasma; oral, 5 mg/kg, 2 h after pretreatment, with: single quinidine 2.5 mg/kg): 2.55 ± 0.89 h

COc1ccsc1CNCC[C@@]1(c2ccccn2)CCOC2(CCCC2)C1
half-life (healthy human, normal hepatic function, plasma; intravenous, 1 mg single dose, geometric mean): 2.1 h

CNC(=O)O/N=C/C(C)(C)SC
inhibition (Cytochrome P450 2D6 (CYP2D6, Homo sapiens, UniProt P10635); inhibitor; human liver microsomes; 2 µM, pH 7.4, with: dextromethorphan): 2.45%

CC[N+]1=C(C=CC=CC=C2N(CCCCCC(=O)NCCN3C(=O)CC(SC[C@@H](NC(=O)[C@@H](CCCNC(=N)N)NC(=O)[C@@H](CCCNC(=N)N)NC(=O)[C@@H](CCCNC(=N)N)NC(=O)[C@@H](CCCNC(=N)N)NC(=O)[C@@H](CCCNC(=N)N)NC(=O)[C@@H](CCCNC(=N)N)NC(=O)[C@@H](CCCNC(=N)N)NC(=O)[C@@H](CCCNC(=N)N)NC(=O)[C@@H](CCCNC(=N)N)NC(=O)[C@H](CC(C)C)NC(=O)[C@H](CCCCN)NC(=O)[C@H](CC(C)C)NC(=O)[C@H](CCC(N)=O)NC(=O)[C@H](CC(C)C)NC(=O)[C@H](CCCNC(=N)N)NC(=O)CCCCCNC(=O)[C@@H](CCC(=O)O)NC(=O)[C@@H](CCC(=O)O)NC(=O)[C@@H](CCC(=O)O)NC(=O)[C@@H](CCC(=O)O)NC(=O)[C@@H](CCC(=O)O)NC(=O)[C@@H](CCC(=O)O)NC(=O)[C@@H](CCC(=O)O)NC(=O)[C@@H](CCC(=O)O)NC(=O)[C@H](N)CCC(=O)O)C(N)=O)C3=O)c3ccc(S(=O)(=O)O)cc3C2(C)C)C(C)(C)c2cc(S(=O)(=O)[O-])ccc21 (stereo partly shown)
cleavage (MMP1 (Homo sapiens, UniProt P03956); substrate; 5 µM, 2 h): 9.7 ± 1.1%

CN1CC[C@@]23CCCC[C@@H]2[C@@H]1Cc1ccc(O)cc13
MRT(0-t) (Wistar rat, both sexes, plasma; oral, 5 mg/kg DEM, DEM 2 h after pretreatment, with: TCE 100 mg/kg single pretreatment): 4.86 ± 0.95 h

C=C1C[C@@H]2[C@H](CC[C@]3(C)C(=O)CC[C@@H]23)[C@@]2(C)C=CC(=O)C=C12
plasma concentration difference (LC-MS/MS; postmenopausal breast cancer patients, plasma; oral, 25 mg/day, 2 h, steady state, outlier excluded; relative to: CYP3A4*22 carriers over non-carriers): 43%

CN[C@@](C)(C[18F])C(=O)O
tracer uptake (DU-145 tumour model; host not given, bone; 30 min, tumour-bearing): 2 %ID/g

CN(CCOC(c1ccccc1)c1ccccc1)N=O
mutagenicity (Salmonella typhimurium, Escherichia coli; preincubation Ames test; concentration not given, with and without S9): positive

[123I]c1cncc(OC[C@@H]2CCN2)c1
tissue/plasma ratio (SPECT; human, high plasma nicotine, thalamus; intravenous, dose not given; relative to: plasma): 27.5

CN(CCC(Oc1ccc(C(F)(F)F)cc1)c1ccccc1)N=O (stereo not shown)
mutagenicity (Salmonella typhimurium, Escherichia coli; preincubation Ames test; concentration not given, with and without S9): positive

CNC(=O)O/N=C/C(C)(C)[S+](C)[O-] (stereo not shown)
inhibition (CYP1A2; inhibitor; human liver microsomes; 10 µM, pH 7.4, with: phenacetin): < 0%

CCCCN(CCCC)N=O
mutagenicity (Salmonella typhimurium, Escherichia coli; preincubation Ames test; concentration not given, with and without S9): positive

C[C@H]1CNCCc2ccc(Cl)cc21
AUC(0-inf) (male Sprague-Dawley rat, plasma; subcutaneous, 3 mg/kg, single dose): 199 ng·h/mL

COC(=O)[C@H](C(C)C)N(Cc1ccc(-c2ccccc2-c2nnn[nH]2)cc1)N=O
mutagenicity (Salmonella typhimurium, Escherichia coli; preincubation Ames test; concentration not given, with and without S9): negative

CCCCCCCCCCC(=O)O[C@H]1CC[C@H]2[C@@H]3CCC4=CC(=O)CC[C@]4(C)[C@H]3CC[C@]12C
testosterone change (human blood, NaF/EDTA tubes; 600 ng/mL, 60 min; relative to: no compound added): 59.2%

O=NN1CCN(C2CCCC2)CC1
mutagenicity (Salmonella typhimurium, Escherichia coli; preincubation Ames test; concentration not given, with and without S9): positive

Cc1ncc2n1-c1ccc(Cl)cc1C(c1ccccc1F)=NC2
Cmax LS mean (healthy men, plasma; oral, 7.5 mg, without amenamevir): 34 ng/mL

For quick reference, copied from above:
CN[C@@](C)(C[18F])C(=O)O
tracer uptake (DU-145 tumour model; host not given, bone; 30 min, tumour-bearing): 2 %ID/g
